Results gathered from unrelated publications.
Protocols differ between the studies behind these lines. Several values in a cell are separate wells, animals, samples, runs or records. ± marks the error that the study gave.

| Structure (SMILES) | test | test system | setting | scale | quantity | value |
| --- | --- | --- | --- | --- | --- | --- |
| C#Cc1c(F)ccc2cc(O)cc(-c3ncc4c(N5CC6CCC(C5)N6C(=O)OC(C)OC(=O)c5cccc6ccccc56)nc(OC[C@@]56CCCN5C[C@H](F)C6)nc4c3F)c12 (stereo partly drawn) | chemical stability | simulated intestinal fluid | 1 µM, 30 min |  | compound remaining | 99.5% |
| CC(=O)N1c2ccc(-c3ccc(C(=O)NCCN4CC(N5CCN(CC(=O)N[C@H](C(=O)N6C[C@H](O)C[C@H]6C(=O)NCc6ccc(-c7scnc7C)cc6)C(C)(C)C)CC5)C4)cc3)cc2[C@H](Nc2ccc(Cl)cc2)C[C@@H]1C |  | Sf9 cell culture medium |  |  | kinetic solubility | < 1.56 µM |
| CC(C)C[C@@H](NC(=O)[C@@H](CCCNC(=N)N)NC(=O)[C@@H](Cc1c[nH]cn1)NC(=O)[C@@H](Cc1c[nH]c2ccccc12)NC(=O)[C@@H](Cc1c[nH]cn1)NC(=O)[C@@H](Cc1ccccc1)NC(=O)[C@H](NC(=O)[C@@H](Cc1ccc(O)cc1)NC(=O)CNC(=O)CNC(=O)CCOCCOCCOCCNC(=O)CN1CCN(CC(=O)O)CCN(CC(=O)O)CC1)[C@H](C)O)C(=O)N[C@H](CC(N)=O)C(=O)N1CCC[C@@H]1C(=O)O [gallium-68 labelled] |  | human male, from C57BL/6 mouse, osteogenic cells |  |  | absorbed dose | 0.0131 ± 0.000116 mSv/MBq |
| CCCCCCCCCCCCCCCC(=O)N[C@@H](CCCNC(=N)N)C(=O)N[C@@H](Cc1c[nH]c2ccccc12)C(=O)N[C@@H](CCCCN)C(=O)N[C@H](C(=O)N[C@@H](Cc1ccccc1)C(=O)N[C@@H](CCCCN)C(=O)N[C@@H](CCCCN)C(=O)N[C@H](C(=O)N[C@@H](CCC(=O)O)C(=O)N[C@@H](CCCCN)C(=O)N[C@H](C(=O)NCC(=O)N[C@@H](CCC(N)=O)C(=O)N[C@@H](CC(N)=O)C(=O)N[C@H](C(=O)N[C@@H](CCCNC(=N)N)C(=O)N[C@@H](CC(=O)O)C(=O)NCC(=O)N[C@H](C(=O)N[C@H](C(=O)N[C@@H](CCCCN)C(=O)N[C@@H](C)C(=O)NCC(=O)N1CCC[C@H]1C(=O)N[C@@H](C)C(=O)N[C@H](C(=O)N[C@@H](C)C(=O)N[C@H](C(=O)N[C@H](C(=O)NCC(=O)N[C@@H](CCC(N)=O)C(=O)N[C@@H](C)C(=O)N[C@@H](C)C(=O)N[C@H](C(=O)N[C@H](C(N)=O)[C@@H](C)CC)[C@@H](C)O)C(C)C)C(C)C)C(C)C)C(C)C)[C@@H](C)CC)[C@@H](C)CC)C(C)C)[C@@H](C)CC)[C@@H](C)CC |  | mouse erythrocytes | 32 µM, 1 h, 37 °C |  | hemolysis | ~30% |
| C=Cc1c(C)c2cc3nc(c(CC(=O)[O-])c4[n-]c(cc5nc(cc1[n-]2)C(C)=C5CC)c(C)c4C(=O)[O-])C(CCC(=O)[O-])C3C.[Cu+2].[Na+].[Na+].[Na+] (stereo not drawn) |  | Wistar rat, female | oral, 250 mg/kg daily, 28 days |  | serum ALT | 35.2 ± 7.83 U/L |
| CN1Cc2cc(Cl)ccc2-n2c(nnc2C2CCN(c3cccc([18F])n3)CC2)C1 |  | C57BL/6 mouse male, pancreas | intravenous, 3.7 MBq, 1 min |  | tissue uptake | 6.71 ± 2.91 %ID/g |
| CCCCCCCCCCCC(=O)C(C)C(=O)N1CCC[C@H]1C(=O)NC(C)(C)C(=O)NC(C)(C)C(=O)NC(C)(C)C(=O)N[C@](C)(CC)C(=O)NCCC(=O)N[C@@H](C)C(=O)N[C@](C)(CC)C(=O)N[C@@H](C)C(=O)N[C@@H](CC(C)C)C(=O)N[C@](C)(CC)C(=O)NCCC(=O)N[C@@H](C)C(=O)N[C@](C)(CC)C(=O)NCCC(=O)N[C@@H](C)C(=O)NC(C)(C)C(=O)NC(C)(C)C(=O)NC(C)(C)C(=O)N[C@@H](C)C(=O)N[C@@H](CC(=O)O)C(=O)O (stereo partly drawn) | LC-MS | 50% pooled human serum | 40 µM, 120 min, pH 7.5, 37 °C | relative to: 0 h | remaining intact peptide | 42.9% and 40% |
| O=C(Nc1cccs1)c1cccnc1 |  | mouse, plasma | intravenous, 5 mg/kg |  | plasma clearance time | ≤ 90 min |
| N#[11C]c1ccc(-c2csc(NN=C3CCCC3)n2)cc1 |  | C57BL/6 mice, male, thymus | intravenous, 3 MBq, 5 min |  | radioactivity uptake | 4.17 ± 1.06 %ID/g |
| CSCC[C@H](NC(=O)CNC(=O)[C@H](CCCCN)NC(=O)[C@H](CC(C)C)NC(=O)[C@@H]1CCCN1C(=O)[C@H](CO)NC(=O)[C@H](Cc1c[nH]cn1)NC(=O)[C@H](Cc1c[nH]c2ccccc12)NC(=O)[C@H](CCCNC(=N)N)NC(=O)[C@H](CC(C)C)NC(=O)[C@H](CCCNC(=N)N)NC(=O)[C@H](Cc1c[nH]c2ccccc12)NC(=O)[C@H](CS)NC(=O)CCCCCNC(=O)CN1CCN(CC(=O)O)CCN(CC(=O)O)CCN(CC(=O)O)CC1)C(=O)O [copper-64 labelled] |  | C57BL/6J mice, B16-F10 tumour | intravenous, 1.85 MBq, 30 h | relative to: tumour over muscle | tumour-to-muscle ratio | 7.02 |
| CSCC[C@@H]1NC(=O)[C@H](C(C)C)NC(=O)[C@H](CCCNC(=N)N)NC(=O)CNC(=O)[C@@H]2CCCN2C(=O)[C@@H](NC(=O)CNC(=O)[C@H](CO)NC(=O)CNC(=O)[C@H](CO)NC(=S)Nc2ccc(C[C@H]3CN(CC(=O)O)CCN(CC(=O)O)CCN3CC(=O)O)cc2)CSSC[C@@H](C(N)=O)NC(=O)[C@@H]2CCCN2C(=O)CNC(=O)[C@H](CCC(=O)O)NC(=O)[C@H](CC(=O)O)NC(=O)[C@H](CC(=O)O)NC(=O)CNC(=O)[C@H](CC(C)C)NC(=O)[C@H](Cc2c[nH]cn2)NC(=O)[C@H](CC(C)C)NC(=O)CNC(=O)[C@H](Cc2c[nH]cn2)NC1=O [copper-64 labelled] | dynamic PET | CD rat, myocardial infarction model, remote myocardium | intravenous, 18.5 MBq, 5 to 60 min |  | half-life | 19.8 ± 6.3 min |
| CC[C@H](C)[C@H](NC(=O)[C@H](CCCCN)NC(=O)CNC(=O)[C@H](CC(C)C)NC(=O)[C@H](Cc1ccccc1)NC(=O)[C@H](CCCCN)NC(=O)[C@H](CO)NC(=O)[C@H](Cc1ccccc1)NC(=O)[C@H](Cc1c[nH]c2ccccc12)NC(=O)[C@H](CCC(N)=O)NC(=O)[C@@H](NC(=O)[C@H](Cc1ccccc1)NC(=O)CCCCCNC(=O)CN1CCN(CC(=O)O)CCN(CC(=O)O)CCN(CC(=O)O)CC1)C(C)C)C(=O)N[C@@H](CCC(=O)O)C(=O)N1CCC[C@H]1C(=O)N[C@H](CC(=O)O)C(=O)N[C@H](C(=O)N[C@@H](CO)C(=O)N[C@@H](CCC(N)=O)C(=O)N[C@H](C(=O)N[C@@H](CCC(N)=O)C(=O)N[C@@H](CC(=O)O)C(=O)N1CCC[C@H]1C(=O)N[C@@H](CC(N)=O)C(=O)N[C@@H](CC(=O)O)C(=O)N[C@@H](CCC(N)=O)C(=O)N[C@@H](Cc1ccc(O)cc1)C(=O)N[C@@H](CCC(=O)O)C(=O)N1CCC[C@H]1C(=O)N[C@@H](Cc1ccccc1)C(=O)O)C(C)C)C(C)C [copper-64 labelled] |  | female mice, EMT6 tumour-bearing, blood | 2 h, uncleavable control tracer, vehicle-treated |  | tissue uptake | 2.11 ± 0.12 %ID/g |
| CC(C)[C@@H]1NC(=O)CNC(=O)[C@H](CC(N)=O)NC(=O)[C@H](CCCNC(=N)N)NC(=O)[C@H](Cc2ccc(O)cc2)NC(=O)[C@H](C(C)C)NC(=O)[C@@H](NC(=O)[C@@H](NC(=O)[C@H](CC(N)=O)NC(=O)[C@H](Cc2c[nH]c3ccccc23)NC(=O)[C@H](C)NC(=O)[C@H](Cc2ccccc2)NC(=O)CNC(=O)[C@H](CCCCN)NC(=O)[C@H](Cc2ccccc2)NC(=O)[C@H](Cc2ccccc2)NC(=O)[C@H](CCCCN)NC(=O)OCC2c3ccccc3-c3ccccc32)C(C)C)CSSC[C@@H](C(=O)N[C@@H](Cc2c[nH]cn2)C(=O)N[C@@H](CCCNC(=N)N)C(=O)N[C@@H](CCCNC(=N)N)C(=O)N[C@@H](C)C(=O)N[C@@H](CC(N)=O)C(N)=O)NC(=O)[C@H](C(C)C)NC(=O)[C@H](CCCNC(=N)N)NC1=O |  | ICR mice, serum | intraductal mammary, 5 mg/kg, day 5 |  | phosphorus | 3.19 ± 0.18 mmol/L |
| CC(=O)NCCCC[C@@H]1NC(=O)[C@H](Cc2c[nH]c3c(C)cccc23)NC(=O)[C@H]([C@@H](C)O)NC(=O)[C@H](CC(N)=O)NC(=O)[C@@H](NC(C)=O)C(C)(C)SSC(C)(C)[C@@H](C(=O)N[C@@H](Cc2ccc(OCCN)cc2)C(=O)N[C@@H](Cc2ccc3ccccc3c2)C(=O)NC2(C(=O)N[C@@H](CCC(=O)O)C(=O)N[C@@H](CC(N)=O)C(=O)N[C@@H](Cc3cccnc3)C(=O)N(C)CC(N)=O)CCOCC2)NC1=O | equilibrium dialysis | rat, plasma | 0.1 µM |  | plasma protein binding | 47.9 ± 3.2% |
| CC[C@H](C)[C@H](NC(=O)[C@H](CCCNC(=N)N)NC(=O)[C@H](CCCCN)NC(=O)[C@H](Cc1ccc(O)cc1)NC(=O)[C@H](CC(=O)O)NC(=O)[C@H](C)NC(=O)CNC(=O)CCOCCOCCOCCNC(=O)CN1CCN(CC(=O)O)CCN(CC(=O)O)CCN(CC(=O)O)CC1)C(=O)N[C@H](C(=O)N[C@H](C(=O)N[C@@H](CCCCN)C(=O)N[C@H](C(=O)N[C@@H](CC(N)=O)C(N)=O)C(C)C)C(C)C)[C@@H](C)O [copper-64 labelled] | ex vivo gamma counting | C57BL/6J male mice, B16-F10 tumour, stomach | intravenous, 1.85 MBq, 20 min |  | tissue uptake | 1.98 ± 0.146 %ID/g |
| CCCC[C@H]1C(=O)N(C)[C@@H](CCCC)C(=O)N[C@@H](CCCNC(=O)CN2CCN(CC(=O)O)CCN(CC(=O)O)CCN(CC(=O)O)CC2)C(=O)N[C@H](C(=O)NCC(N)=O)CSCC(=O)N[C@@H](Cc2ccc(O)cc2)C(=O)N(C)[C@@H](C)C(=O)N[C@@H](CC(N)=O)C(=O)N2CCC[C@H]2C(=O)N[C@@H](Cc2c[nH]cn2)C(=O)N[C@@H](CC(C)C)C(=O)N(C)CC(=O)N[C@@H](Cc2c[nH]c3ccccc23)C(=O)N[C@@H](CO)C(=O)N[C@@H](Cc2c[nH]c3ccccc23)C(=O)N1C [gallium-68 labelled] |  | NOD/SCID mice with CHO-hPD-L1 xenograft, brain | 60 min post injection |  | tissue uptake | 0.62 ± 0.3 %ID/g |
| CSCC[C@H](N)C(=O)N[C@@H](C)C(=O)N[C@@H](Cc1c[nH]c2ccccc12)C(=O)N[C@@H](Cc1c[nH]cn1)C(=O)N[C@@H](CC(=O)O)C(=O)N[C@@H](CC(=O)O)C(=O)N[C@@H](CCC(=O)O)C(=O)N[C@@H](CCC(=O)O)C(=O)N[C@@H](Cc1ccccc1)C(=O)N[C@@H](C)C(=O)N[C@@H](CCCNC(=N)N)C(=O)N[C@@H](CCCNC(=N)N)C(=O)N[C@@H](CCCNC(=N)N)C(=O)N[C@@H](CCCNC(=N)N)C(=O)NCCCCCC(=O)NCCCCC(NC(=O)CCCCCNC(=O)[C@H](CCCNC(=N)N)NC(=O)[C@H](CCCNC(=N)N)NC(=O)[C@H](CCCNC(=N)N)NC(=O)[C@H](CCCNC(=N)N)NC(=O)[C@H](C)NC(=O)[C@H](Cc1ccccc1)NC(=O)[C@H](CCC(=O)O)NC(=O)[C@H](CCC(=O)O)NC(=O)[C@H](CC(=O)O)NC(=O)[C@H](CC(=O)O)NC(=O)[C@H](Cc1c[nH]cn1)NC(=O)[C@H](Cc1c[nH]c2ccccc12)NC(=O)[C@H](C)NC(=O)[C@@H](N)CCSC)C(=O)NCCCCC(NC(=O)C(CCCCNC(=O)CCCCCNC(=O)[C@H](CCCNC(=N)N)NC(=O)[C@H](CCCNC(=N)N)NC(=O)[C@H](CCCNC(=N)N)NC(=O)[C@H](CCCNC(=N)N)NC(=O)[C@H](C)NC(=O)[C@H](Cc1ccccc1)NC(=O)[C@H](CCC(=O)O)NC(=O)[C@H](CCC(=O)O)NC(=O)[C@H](CC(=O)O)NC(=O)[C@H](CC(=O)O)NC(=O)[C@H](Cc1c[nH]cn1)NC(=O)[C@H](Cc1c[nH]c2ccccc12)NC(=O)[C@H](C)NC(=O)[C@@H](N)CCSC)NC(=O)CCCCCNC(=O)[C@H](CCCNC(=N)N)NC(=O)[C@H](CCCNC(=N)N)NC(=O)[C@H](CCCNC(=N)N)NC(=O)[C@H](CCCNC(=N)N)NC(=O)[C@H](C)NC(=O)[C@H](Cc1ccccc1)NC(=O)[C@H](CCC(=O)O)NC(=O)[C@H](CCC(=O)O)NC(=O)[C@H](CC(=O)O)NC(=O)[C@H](CC(=O)O)NC(=O)[C@H](Cc1c[nH]cn1)NC(=O)[C@H](Cc1c[nH]c2ccccc12)NC(=O)[C@H](C)NC(=O)[C@@H](N)CCSC)C(N)=O (stereo partly drawn) |  | C57BL/6 mouse female, small intestine | 6 h | relative to: total dose | tissue distribution | 13.1% |
| O=C1NC2(CC2)COc2ncc(F)cc2[C@H]2COCCN2c2ccn3ncc1c3n2 |  | Sprague-Dawley rat, female, uterus | oral, 20 mg/kg/day, 4 weeks, end of treatment |  | organ-to-body weight ratio | 0.155 ± 0.03% |
